Results gathered from unrelated publications.
± marks the error that the study gave. Where no end group is shown, it is not given here.
ALB: Albumin (ALB, Homo sapiens, UniProt P02768)
SLC10A1: Hepatic sodium/bile acid cotransporter (SLC10A1, Homo sapiens, UniProt Q14973)
Protein farnesyltransferase: Protein farnesyltransferase (Homo sapiens, UniProt P49354+P49356)
CXCR4: C-X-C chemokine receptor type 4 (CXCR4, Homo sapiens, UniProt P61073)
chemosensory protein 1: chemosensory protein 1 (Chilo suppressalis, UniProt V9PY22)
T1: RNA aptamer; CUUGGUUUAGGUAAUGAG
T2: DNA:RNA hybrid triplex, strand 1 RNA, strand 2 DNA; chain A; chain T
B1: side-chain stapled; chain AACSFRINSLCG (also: sidechain bridge or staple (positions not given here))

Substance | target | test | system | conditions | scale | measurement | result
B1 | Dipeptidyl peptidase 4 (DPP4, Homo sapiens, UniProt P27487) | enzyme activity | – | 200 µM, 37 °C | reference: FAPα over DPP4 | selectivity ratio | 9 fold
CNc1ncnc2c1ncn2[C@@H]1O[C@H](COP(=O)(O)OP(=O)(O)OP(=O)(O)O)[C@@H](O)[C@H]1O.N.N.N.N | Uracil nucleotide/cysteinyl leukotriene receptor, short isoform (GPR17, Homo sapiens, UniProt Q13304, R283I) | frontal affinity chromatography-MS | mutated receptor IAM column | concentration not given | reference: wild type column | breakthrough time change | 10.6%
O=C(O)c1ccc(NC(c2ccc(F)cc2)c2ccc3cccnc3c2O)cc1 (stereo not shown) | CAAX prenyl protease 2 (Homo sapiens, UniProt Q9Y256) | enzyme activity, inhibitor | – | 10 µM | – | remaining activity | 23 to 32%
COc1cc2c(NC3CCN(CCCC(=O)NCCCCCCC(=O)N[C@H](C(=O)N4C[C@H](O)C[C@H]4C(=O)NCc4ccc(-c5scnc5C)cc4)C(C)(C)C)CC3)nc(N3CCC(F)(F)CC3)nc2cc1OCCCN1CCCC1 | Histone-lysine N-methyltransferase EHMT2 (EHMT2, Homo sapiens, UniProt Q96KQ7) | degrader, western blot | – | 0.3 µM, 24 h | reference: DMSO | degradation | < 10%
COc1ccc(CCN2CCC(Nc3nc4ccccc4n3Cc3ccc(F)cc3)CC2)cc1 | Alzheimer paired helical filaments | surface plasmon resonance | – | 150 µM, response per molecular weight | reference: thioflavin S | relative binding | 2.6
O=c1ccn([C@@H]2O[C@H](CO[P@@](=O)(O)O[P@@](=O)(O)OP(=O)(O)O)[C@@H](O)[C@H]2O)c(=O)[nH]1 (stereo in doubt) | ALB | binding, native ESI-FT-ICR MS | – | 3 µM, saturation curve | – | bound fraction | 0.836 ± 0.018
CCCCOc1cc(C(=O)NCCN(CC)CC)c2ccccc2n1 | SLC10A1 | inhibitor | HEK293 expressing NTCP | 100 µM, 5 min, with: taurocholate 10 µM | reference: no compound | taurocholate uptake | 100 ± 1%
CGQL | Protein farnesyltransferase | enzyme activity, substrate, fluorimetric | peptide | 3 µM, 30 min, with: 9 µM farnesyl diphosphate | reference: dansyl-GCVLS (set to 1.0) | relative fluorescence increase | 0
O=C(NCc1ccc(CNS(=O)(=O)c2ccccc2Cl)cc1)c1ccc(CNc2ncccn2)cc1 | CXCR4 | binding, competitive inhibitor, competitive binding | MDA-MB-231 | semi-quantitative rhodamine readout, with: biotinylated TN14003 | – | lowest effective concentration | 1000 nM
O=C1C[C@@H](c2ccc(O)cc2)Oc2cc(O)cc(O)c21 | UDP-glucuronosyltransferase 1A9 (UGT1A9, Homo sapiens, UniProt O60656) | substrate | – | pH 7.4, 37 °C | – | Vmax | 5000 pmol/mg/min
O=c1ccn([C@@H]2O[C@H](COP(=O)(O)OP(=O)(O)O)[C@@H](O)[C@H]2O)c(=O)[nH]1 | galU (Streptococcus pneumoniae, UniProt A0A0H2ZMV4) | enzyme activity, inhibitor | Streptococcus pneumoniae, extract of treated cells | 1 h, 37 °C | – | inhibitory concentration | 5 µM
O=C(NCc1ccc(CNS(=O)(=O)c2ccc(Cl)cc2)cc1)c1ccc(F)cc1 | CXCR4 | binding, competitor, rhodamine fluorescence | MDA-MB-231 | semi-quantitative screen, with: biotinylated TN14003 | – | lowest effective concentration | 100 nM
CN(Cc1ccc(CN(C)Cc2cccc(F)c2)cc1)Cc1cccc(F)c1 | CXCR4 | binding, competition binding | MDA-MB-231 | semi-quantitative screen, with: biotinylated TN14003 | – | lowest effective concentration | > 1000 nM
CCCCCC/C=C\CCCCCCCC=O | chemosensory protein 1 | binding, competitive ligand, fluorescence competitive binding | – | highest concentration tested, pH 7.4, protein 2 µM, with: 1-NPN 2 µM | reference: no ligand | remaining 1-NPN fluorescence | 44.8 ± 2.25%
CCSL | Protein farnesyltransferase | enzyme activity, substrate, fluorimetric | peptide | 3 µM, 30 min, with: 9 µM farnesyl diphosphate | reference: dansyl-GCVLS (set to 1.0) | relative fluorescence increase | 0
COc1ccc(/C=C/c2cccc3c2COB3O)cc1 | ALB | fluorescence quenching, van't Hoff | – | concentration not given | – | binding enthalpy | 0.468 kcal/mol
CC/C=C\CCOC(C)=O | Chilo suppressalis CSP2 | binding, competitive ligand, fluorescence competitive binding | – | highest concentration tested, pH 7.4, protein 2 µM, with: 1-NPN 2 µM | reference: no ligand | remaining 1-NPN fluorescence | 60.6 ± 3.27%

Substance | target | test | system | conditions | scale | measurement | result
hirudin | Prothrombin, thrombin form (Mus musculus, UniProt P19221) | Cy5/Cy7 ratiometric imaging | mouse tail-clip model | s.c., 2000 U/mouse, 20 min before probe | – | inhibition of clot signal | > 90%
CCC/C=C/CO | chemosensory protein 1 | binding, competitive ligand, fluorescence competitive binding | – | highest concentration tested, pH 7.4, protein 2 µM, with: 1-NPN 2 µM | reference: no ligand | remaining 1-NPN fluorescence | 89 ± 2.02%
C[C@H](NC(=O)[C@H](CCCNC(=N)N)N(C)C(=O)[C@@H]1CCCN1C(=O)[C@H](CCCNC(=N)N)NC(=O)CNC(=O)c1ccc2c(c1)C1(OC2=O)c2ccc(O)cc2Oc2cc(O)ccc21)C(=O)N[C@@H](Cc1ccccc1)C(=O)N[C@H](C(=O)N[C@@H](Cc1ccccc1)C(=O)N[C@H](C)C(=O)N[C@@H](CCC(=O)O)C(=O)NCC(N)=O)[C@@H](C)O | RAC-alpha serine/threonine-protein kinase (AKT1, Homo sapiens, UniProt P31749) | substrate, CE-LIF | – | 25 µM, pH 7.0, 30 °C, enzyme 6 nM, with: ATP 1 mM | – | time to half phosphorylation | 306 min
CC(C)[C@H]1CC[C@H](C(=O)N[C@H](Cc2ccccc2)C(=O)O)CC1 | SLC10A1 | inhibitor | HEK293 expressing NTCP | 100 µM, 5 min, with: taurocholate 10 µM | reference: no compound | taurocholate uptake | 62 ± 1.4%
CCCCC(C(=O)COc1c(F)c(F)cc(F)c1F)n1cc(C2(N)CCNCC2)nn1 (stereo not shown) | DPAP1 (Plasmodium falciparum, UniProt Q8IIJ9) | inhibitor | parasite lysate | with: (Pro-Arg)2-rhodamine substrate | – | second-order inactivation rate constant | < 20 M⁻¹ s⁻¹
CCCCC#Cc1cn([C@@H]2O[C@H](COP(=O)(O)OP(=O)(O)O)[C@@H](O)[C@H]2O)c(=O)[nH]c1=O | Uracil nucleotide/cysteinyl leukotriene receptor (GPR17, Homo sapiens, UniProt Q13304) | frontal affinity chromatography-MS | immobilized on IAM column | 1 µM, compound mixture | – | breakthrough time | 4.83 min
NC[C@H]1O[C@H](O[C@H]2[C@H](O)[C@@H](O[C@H]3O[C@H](CO)[C@@H](O)[C@H](N)[C@H]3O)[C@H](N)C[C@@H]2N)[C@H](N)C[C@@H]1O | T1, RNA aptamer | square wave voltammetry | – | pH 7.4, NaCl 100 mM, electrochemical aptamer sensor | – | Kd | 0.07 µM
O=P(O)(O)OC[C@H]1OC(O)(COP(=O)(O)O)[C@@H](O)[C@@H]1O (stereo partly shown) | Pyruvate kinase 1 (Aedes aegypti, UniProt Q16F38) | thermal shift | – | 500 µM, pH 7.5 | – | ΔTm | 3.33 °C
CCCCCCCC[N+](=O)[O-] | Nitroalkane oxidase (Fusarium oxysporum, UniProt Q8X1D8) | oxygen consumption | – | pH 8.0, 30 °C | – | substrate inhibition constant | 8.3 ± 3.7 mM
CC(C)C[C@H](NC(=O)[C@H](C)NC(=O)[C@H](C)NC(=O)[C@H](CC(C)C)NC(=O)[C@H](CCC(=O)O)NC(=O)[C@H](CCCCN)NC(=O)[C@H](CC(C)C)NC(=O)[C@H](CCCNC(=N)N)NC(=O)[C@H](C)NC(=O)[C@H](CCCNC(=N)N)NC(=O)[C@H](CC(C)C)NC(=O)[C@H](Cc1c[nH]cn1)NC(=O)[C@H](C)NC(=O)[C@H](CC(C)C)NC(=O)[C@H](CCCCN)NC(=O)CNC(=O)CNC(=O)[C@H](CCCCN)NC(=O)[C@H](C)NC(=O)CNC(=O)[C@H](CCCCN)NC(=O)CNC(=O)CN)C(=O)N[C@@H](CCC(=O)O)C(=O)N[C@@H](C)C(=O)N[C@@H](C)C(=O)N[C@@H](C)C(=O)N[C@@H](CCCCN)C(=O)O | Calmodulin-1, Ca2+-bound N-lobe (CALM1, Homo sapiens, UniProt P0DP23) | ITC | isolated calmodulin N-lobe | 50 µM, pH 7.0, 27 °C, 0.5 mM N-lobe, with: 1 mM CaCl2 | – | association constant K1 | < 18000 M⁻¹
CAIL | Protein farnesyltransferase | enzyme activity, substrate, fluorimetric | peptide | 3 µM, 30 min, with: 9 µM farnesyl diphosphate | reference: dansyl-GCVLS (set to 1.0) | relative fluorescence increase | 0.71
Nc1c(N=Nc2ccc(S(=O)(=O)CCOS(=O)(=O)[O-])cc2)c(S(=O)(=O)[O-])cc2cc(S(=O)(=O)[O-])c(N=Nc3ccc(S(=O)(=O)CCOS(=O)(=O)[O-])cc3)c(O)c12.[Na+].[Na+].[Na+].[Na+] | ancestral DyP peroxidase wild type | peroxidase activity, substrate | – | pH 4.0, 25 °C, pH 4.5 for Mn2+ | – | Hill coefficient | ~3
CN(C)c1ccc(C(=C2C=CC(=[N+](C)C)C=C2)c2ccc(N(C)C)cc2)cc1 | Cell division cycle 7-related protein kinase, with DBF4 (CDC7, Homo sapiens, UniProt O00311) | kinase activity, scintillation proximity | – | 10 µM, 1% DMSO, with: Dbf4 | – | inhibition | > 30%
N=C(N)c1ccc(N=NNc2ccc(C(=N)N)cc2)cc1 | T2, DNA:RNA hybrid triplex, strand 1 RNA, strand 2 DNA | UV melting | – | 20 µM, NaCl 18 mM, no triplex without ligand | – | melting temperature | 34.2 °C
CCCCCCCCCCCC(=O)O | Chilo suppressalis CSP2 | binding, competitive ligand, fluorescence competitive binding | – | highest concentration tested, pH 7.4, protein 2 µM, with: 1-NPN 2 µM | reference: no ligand | remaining 1-NPN fluorescence | 75.9 ± 3.78%
NC(=O)c1cccc2[nH]c(-c3ccc(C(=O)N4CCn5c(nnc5C(F)(F)F)C4)cc3)nc12 | Poly [ADP-ribose] polymerase 1 (PARP1, Homo sapiens, UniProt P09874) | DNA binding, fluorescence polarization DNA competition | – | 100 µM, 200 s, with: unlabeled competitor DNA 2 µM | – | PARP1 bound to DNA | 14.7 ± 2%
O=C(CCn1ccc2ccc(Cl)cc21)N(c1ccc(F)cc1)c1ccc(F)cc1 | Proteasome subunit alpha type-2/Proteasome subunit alpha type-6, 20S proteasome (Homo sapiens, UniProt P25787+P60900) | proteolysis, activator, fluorogenic peptide | purified 20S proteasome | up to 30 µM, with: Suc-LLVY-AMC, Z-LLE-AMC, Boc-LRR-AMC | reference: vehicle | maximum fold increase | 4.4

Repeated from above:
Substance | target | test | system | conditions | scale | measurement | result
CC/C=C\CCOC(C)=O | Chilo suppressalis CSP2 | binding, competitive ligand, fluorescence competitive binding | – | highest concentration tested, pH 7.4, protein 2 µM, with: 1-NPN 2 µM | reference: no ligand | remaining 1-NPN fluorescence | 60.6 ± 3.27%
hirudin | Prothrombin, thrombin form (Mus musculus, UniProt P19221) | Cy5/Cy7 ratiometric imaging | mouse tail-clip model | s.c., 2000 U/mouse, 20 min before probe | – | inhibition of clot signal | > 90%
CCC/C=C/CO | chemosensory protein 1 | binding, competitive ligand, fluorescence competitive binding | – | highest concentration tested, pH 7.4, protein 2 µM, with: 1-NPN 2 µM | reference: no ligand | remaining 1-NPN fluorescence | 89 ± 2.02%
C[C@H](NC(=O)[C@H](CCCNC(=N)N)N(C)C(=O)[C@@H]1CCCN1C(=O)[C@H](CCCNC(=N)N)NC(=O)CNC(=O)c1ccc2c(c1)C1(OC2=O)c2ccc(O)cc2Oc2cc(O)ccc21)C(=O)N[C@@H](Cc1ccccc1)C(=O)N[C@H](C(=O)N[C@@H](Cc1ccccc1)C(=O)N[C@H](C)C(=O)N[C@@H](CCC(=O)O)C(=O)NCC(N)=O)[C@@H](C)O | RAC-alpha serine/threonine-protein kinase (AKT1, Homo sapiens, UniProt P31749) | substrate, CE-LIF | – | 25 µM, pH 7.0, 30 °C, enzyme 6 nM, with: ATP 1 mM | – | time to half phosphorylation | 306 min
CC(C)[C@H]1CC[C@H](C(=O)N[C@H](Cc2ccccc2)C(=O)O)CC1 | SLC10A1 | inhibitor | HEK293 expressing NTCP | 100 µM, 5 min, with: taurocholate 10 µM | reference: no compound | taurocholate uptake | 62 ± 1.4%
